Earlier results that unrelated publications cite.
Protocols differ between the studies behind these lines. ± marks the error that the study gave.

`CCCCCn1cc(C(=O)c2cccc3c2CC(C)(C)C3)c2ccccc21` has a selectivity ratio of 1.1 (cannabinoid receptors; relative to: Ki CB1 over Ki CB2).
`O=C1CC(=O)N(c2ccccc2)c2cc(Cl)ccc2N1` gave a selectivity ratio of 1.33 ± 0.06 (human GABAA receptor; Xenopus laevis oocytes; relative to: α2 over α1).
`CCOCC1C(c2ccc(Cl)c(Cl)c2)CC2CCC1N2C` (stereo not drawn) has an IC50 of 0.0017 µM (norepinephrine transporter; inhibitor).
With `CCCCn1c(NCc2ccc(N3N=C(c4ccccc4)CC3c3ccccc3)cc2)nc2ccccc21` (stereo not drawn) the IC50 was 5.4 µM (coxsackievirus B3 3C protease; inhibitor).
With `COc1cccc2[nH]c(C(=O)N[C@@H](CC(C)C)C(=O)N[C@@H](C[C@@H]3CCNC3=O)C(=O)COP(=O)(O)O)cc12` the IC50 was 0.003 ± 0.001 µM (3C-like protease; enzyme activity, inhibitor).
`CCCC/C=C/C(=O)N[C@@H](Cc1cc(F)cc(F)c1)C(=O)OC` gave an EC50 of roughly 6 µM (Bacillus subtilis ClpP; peptidase activity, activator).
For `CCCCc1ccc(Oc2ccccc2)c(O)c1`, the IC50 was 0.08 ± 0.015 µM (InhA; inhibitor).
For `CCCCCc1cc(O)c2c(c1)OC(C)(C)[C@@H]1CCC(C)=C[C@@H]21`, the inhibitory concentration was less than 1 µM (norepinephrine transporter).
With `CC(=O)NC1C(O)CC(S(=O)(=O)O)OC1C(O)C(O)CO` (stereo not drawn) the potency ratio was no more than 40 fold (influenza virus neuraminidase; relative to: corresponding anomeric phosphonic acids).

For quick reference, copied from above:
For `CCCCc1ccc(Oc2ccccc2)c(O)c1`, the IC50 was 0.08 ± 0.015 µM (InhA; inhibitor).
